Assay results pooled from the literature.
Every numbered part comes from another study and shows a few of its results, in no order.

Sample 1
Target: Histone acetyltransferase KAT6A, both winged helices, GST fusion (KAT6A, Homo sapiens, UniProt Q92794, residues 1-181)
Technique: protein binding microarray
Form: double-stranded DNA, one strand shown
Sample: in vitro
Concentration: not given
Setting: 8-mer, flanks averaged, mean of 2 arrays, mostly near background
Reference: not given
Reading: higher = stronger binding
Residues (chain): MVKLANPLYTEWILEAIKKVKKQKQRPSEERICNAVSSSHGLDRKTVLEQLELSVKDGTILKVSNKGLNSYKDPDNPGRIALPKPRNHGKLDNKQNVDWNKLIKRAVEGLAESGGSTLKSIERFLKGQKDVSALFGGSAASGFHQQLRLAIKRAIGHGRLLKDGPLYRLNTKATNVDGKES
Sequence | E-score
GGTACGCA | 0.0758
AACCGCCA | 0.11
CAGATGCG | 0.0541
TGAACTAA | -0.105
GTGTAACA | -0.038
GAATATCA | -0.021
ATACGTCG | 0.0601
GACGGCAC | 0.202
GCAGTTCA | 0.084
CCTCGCTA | -0.00874
GCCCCAGC | -0.109
ATCCGATA | 0.0925
GGAGCATA | -0.0466
GCTACAGC | -0.00555
GTCCTCTA | -0.0408
CGTTTTCA | 0.145
CAGGCACC | -0.0466
CAGTCCCA | -0.186
GGCTATTA | -0.0953

Sample 2
Target: RNA binding protein fox-1 homolog 2, RRM domain, GST-SBP tag (RBFOX2, Homo sapiens, UniProt O43251-10, residues 100-194)
Technique: RNA Bind-n-Seq
Form: RNA
Sample: in vitro
Concentration: 365 nM
Setting: natural RNA segment, single round, ends assumed
Reference: no-protein control
Reading: higher = stronger binding
Shared flanks, not repeated: GGGAGUUCUACAGUCCGACGAUC … UGGAAUUCUCGGGUGCCAA
Construct (chain): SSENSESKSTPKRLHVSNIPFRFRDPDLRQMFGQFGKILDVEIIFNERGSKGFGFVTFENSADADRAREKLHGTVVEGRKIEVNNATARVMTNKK
Sequence | RBNS enrichment (R)
UUUAAUGUAAUCAAGAAAUUCAAGCUGAAGAGAUGUAACAUUGGUUCUGUAUAAUUGAUAGUACAAGUGUGGACCCUUAUAUUUCUAACAGUUCAUUGCUUUGGAAUGGC | 0.385
CCUGACAGAUCCCACCUGCCUGUCCACUGCCCAUGACUGAGCCCAGCCCCAGCCCGGGUCCAUUGCCCACAUUCUCUGUCUCCUUCUCGUCGGUCUACCCCACUACCUCC | 0.757
UCAAGUCCUGCAGUUGCUGGAGCGCUUACGCACCUGAGCCCUUUGUGUCCUGGGGGAGAGAUGGCCACCUCCGUGGGCUGCGAAGAGCCACCCCUUCCUCUUCCGAUUCU | 0.478
CACAACUUGGACAAAAGUACACAGAAGAACCUUACUAUGAUAAUCUACUUGGAAUGUGGAUAAAUGUAAAAAGAAGAAAAGUUAGAAGAGCAAUAUGUUUCCUUCUCUGU | 0.978
UGUGCCAUUUUCCCAACUUGGCGUUUCACUAAAUGCAGCUGAUCUCUCUCUCUGUGCACUCGUGAUCCAUGUUGAACAAUACAUGUAGGUUCUUUUUCCACGCAAUGUAA | 0.358
GGGCUCCAGGGGAGCAUGCUGUCCAGGGGGCACAGAAGGGUGGUGAGUGUGAUCAAAUCUAGUCUCACUCCCACUUUUUAGUCUCACUCCUACUUUUGUCCACCACCCCU | 3.9
GUGUCUCAAAGAAGGGUGGAAGUUCUCAUGUCUGUUAGCUAUUCAUAAGAAUGCUGUUUGCUGCAGUUCUGUGUCCUGUGCUUGGAUGCUUUUUUAUAAGAGUUGUCAUU | 29.1
GACACCUGGCUGCCGACCUCACUCAGCUCACAGUGGGCUCCAGGCCCGUUUUUACUCAGACAGGGACAGUGUUCACCUACUUGAUACUGCCGUGUUUCUUACCCUCCCUU | 0.297
AGACCUGAGCCUGGGUCCUGACUUUUCCAUUGACUAAGCUCUGUGGCCUUGGGCAAGUCACUCCCCCUCUCUGAGCUUCAGUAUCCUCCUGUCACAGGAGGGAGUUGGGC | 0.593
UACUAGCCUCAAGUGUGCUAUUCCCAUGUGGCUUUAUCCUGUCCGUGUUGUUGAGAGGAUGAUGUUGUAAGGGUACCUUAAAACAAGAGACUCGCUUGUAUUUUAAGAGA | 0.254
CAGUGGAGUGGUGACACGUGCCAGCGGUCACUCUGCCACAUCACUUCCUUCUUGAAAGCCUAAGAGUGCGUAUGCGUGUGUGUGUGUGUGUGUGUGUGUACGUGAGGCAG | 1.03
GUGUAGUCAUUCAUUUCUAGCUGUACAUAGGAUGAAGGAGAGAUCAGAUACAUGAACAUGUCUUACAUGGGUUGCUGUAUUUAGAAUUAUAAACAUUUUUCAUUAUUGGA | 0.391

Sample 3
Target: Hepatocyte nuclear factor 3-alpha (Foxa1, Mus musculus, UniProt P35582, residues 1-468, full length assumed)
Technique: EMSA with sequencing
Form: double-stranded DNA, one strand shown
Sample: in vitro
Concentration: 10 and 20 nM
Setting: whole designed probe, mean of two concentrations, ends assumed
Reference: negative control set to 0
Reading: higher = stronger binding
Shared flanks, not repeated: GTGAGCGGTGCCCATTGATGGGGAAC … TTTCACTGGGATCGTGGGGAC
Construct (chain): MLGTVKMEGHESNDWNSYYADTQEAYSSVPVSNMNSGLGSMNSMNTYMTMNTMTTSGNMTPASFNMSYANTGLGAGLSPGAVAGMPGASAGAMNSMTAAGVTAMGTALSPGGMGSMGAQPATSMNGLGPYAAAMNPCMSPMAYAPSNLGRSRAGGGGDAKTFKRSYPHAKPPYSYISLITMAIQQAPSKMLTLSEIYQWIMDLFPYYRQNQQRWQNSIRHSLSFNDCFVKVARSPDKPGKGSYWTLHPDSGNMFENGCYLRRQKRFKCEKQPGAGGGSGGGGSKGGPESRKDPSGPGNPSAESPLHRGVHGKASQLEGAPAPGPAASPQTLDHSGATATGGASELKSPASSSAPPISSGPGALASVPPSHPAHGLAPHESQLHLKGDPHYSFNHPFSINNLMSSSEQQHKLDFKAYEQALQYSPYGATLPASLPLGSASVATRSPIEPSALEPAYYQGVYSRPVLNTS
Sequence | normalised bound fraction
GCTCAAAAAGCTCGGCTCAAAACTTCATTGTTTTAGGTATTTTGGGGGGAAACGAAGAGTTATCTCAGGAAGGGGGAAATATGTATAGAAAAGTAAACATGAAAACATAAGAATATTTATTCAGTAGTTCATCAAATATATATCAAAACTCTACAATGCCCCCAGATACATATTCTGTACAAGAAGAAATACG | 0.472 ratio
AGTAGCTGAGTCATCTCTGAGAAGAACATTCCCATCTTCAATCGCTGCGGCTGCCTGTTGTGGACGGCCCGGCTGACACGGGTAACTTGATCTGTTTACTCTGGGATTCCTAAGCCCACAGAGTGAGGCCCTCACACGGGGCCTCTCCCCGGGCATCCTGGGCGAGGAGCCCTGGCCCAGCCAGAGTCCCGTT | 0.284 ratio
TGCACCACTCAGCCCCTCCTAGTCCGCTGGAGAAAGTGGCTGAGGGGGTGGTGGGGGATAATTGCATTTCCAAAGTCCGGGCAATCAGCCAATGTAAACAGGCACCTGCGTCACTGTGTGGGCTCTCTAGGCAACAGGTAAAATACATCAAATACACACAATTTCCTGACATTCCAATGCATTTCTGCGTGAG | 0.267 ratio
ACTATTGACCAAATTTTACTAACCCTTTTGTTGGAAGAAATTGTTGGCAGCTATAAACAGTATGAGTATTACAGCCTTAGTTTCAGACTATATGTTTACATTGTCCAATAAATCTCTTCCTACTCCATATTTAGAACACTGTATAGAATAGTAAAAGCTAGAACAATCTTTACAATCACCAGTCTGTAGATTC | 0.413 ratio
AGTCACTCATTCATTACATAAAGTCTTTATCTTCGTGCATATCCTGGAACAATACTCTTAAATAAATACTCTCGGAGGCATTTTACTCCATGGCTATTTACTTTGCATTTCCATGATCTCAATGGAACACAGAAAGGGAGGAGGTAGAAGGCTTGGCAAACAATCATTTGCCACCATCTACGCACAAGGGGAC | 0.416 ratio
ATCTTCCCCCTCTTCCTTGCCCCACCAGCTCACCTTCCCGGGTTATTTGCAGATAGGAAAATAAATAAAGCCGGCATTCGTTAACCCTCTTCTGGCGCAAACTGCTGTTTGCTCTGCATCTAACATGGTCCTTACGCGACGCCAGGCTCCGGGAGAGCAAAGCACCGTGTCAGGCGCATGATCCGGGGTGGCC | 0.354 ratio
ATCTTCCCCCTCTTCCTTGCCCCACCAGCTCACCTACGGGGGTTATTTGCACAAAGGAAAATAAATAAAGCCGGCATTCGTTAACGCAGTTCACGCGCATACTGCTGTTTGCTCTGGATCTAACATGGTCCTTTGGCGAGGCGTGGCTCCGGGAGAGCAAAGCACCGTGTCAGGGCCATGATCCGGGCTCGCC | 0.385 ratio
TTATGATCTGAGTATATATAGTAAGTACCTCCCCTTTCAGGGTAAGGCAGTAGGTAATGGTGAACAGGGAAGCAAAAGGAGACTCTGGTTGAGTAAACAACACCAAGCATATCAGACTCTAGGAATGCTTCAGAGGCCAGGGGTGCATGCCTGTAATCCCAGCACCTTGGAAGGCTGACACAGGAGGATCACT | 0.43 ratio

Sample 4
Target: Interferon regulatory factor 5, full length, phosphomimetic (IRF5, Homo sapiens, UniProt Q13568-2, residues 1-514, S451D/S453D/S456D/S462D)
Technique: protein-binding microarray
Form: double-stranded DNA, one strand shown
Sample: in vitro
Concentration: 940 nM top
Setting: 60-bp whole probe
Added: salmon DNA 0.4 mg/ml
Reference: random background probes
Reading: higher = stronger binding
Shared flanks, not repeated: GCCTAGCAC … GTCTTGATTCGCTTGACGCTGCTG
Sequence | fitted relative affinity [z-score]
TTAGATTTCAGACTGGAGTAGTGCTAG | -0.315
TTAGGTCTCCTTCTCCCTTAGTGCTAG | 0.437
GAACTTCTGCATTACAGCTAGTGCTAG | -0.387
GACGGACTGGACACTGGGGTCGTGCTA | -0.61
TTAGATATCGGGTTTCGACTAGTGCTA | 2.68
TTAGGTATCCCTATCCTTTAGTGCTAG | 0.759
TTAGGACTGCTACTGCATTAGTGCTAG | -0.287
GACGGACTGAGTATCGAGACGTGCTAG | 1.21
GACGGACTGGGACTGGGGAAGTGCTAG | -0.592
ACGCATGTGGGTTCCATCATGTGCTAG | -0.453
CTCATGTTACATTTATATCTGTGCTAG | 0.72
TCATAACTCATTCTCCAACTGTGCTAG | 0.974
TTAGGATTCGGTTTCGGTTAGTGCTAG | 8.84
TTAGATCTAAGACTGGATTAGTGCTAG | -0.541
TCACCTTTCTGCCTCAGACTGTGCTAG | 1.1
TTAGGTTTCCTACTGCTTGAGTGCTAG | 0.63
GGTATTATTTATTGTAGCCTCGTGCTA | 0.514
CTTCATGTGCCTTTATATACGTGCTAG | 0.471
ATATATGTATATATGTGTATGTGCTAG | -0.111
GACGAACTCAGTTTCGAGACGTGCTAG | 3.94
GACGATTTCAGTCTAGAGACGTGCTAG | 0.45
TCATTTTTTTTTTTGTAACTGTGCTAG | 1.5
TTAGATCTCAGTTTCAATTAGTGCTAG | 2.51
TTAGGTAGCGACTTTCGGTTAGTGCTA | 2.83
CATCATTGCCTATTTTTCCCCGTGCTA | 1.23

For quick reference, copied from above (sample 1):
Sequence | E-score
ATCCGATA | 0.0925
GGAGCATA | -0.0466
GCTACAGC | -0.00555
GTCCTCTA | -0.0408
